Published values pooled from the literature.
Every numbered part comes from another study and shows a few of its results, in no order. Changes are numbered by the printed parent chain.

Set 1
Target: ABI1, truncated, D143A, DHFR fusion (Arabidopsis thaliana)
Technique: DHFR PCA, deep sequencing
Matrix: yeast
Notes: methotrexate growth selection, single substitutions
With: (+)-ABA 1.4 µM
Relative to: wild-type fitted maximum
Reading: higher = stronger binding
Parent: PYL1, truncated, DHFR fusion (Arabidopsis thaliana); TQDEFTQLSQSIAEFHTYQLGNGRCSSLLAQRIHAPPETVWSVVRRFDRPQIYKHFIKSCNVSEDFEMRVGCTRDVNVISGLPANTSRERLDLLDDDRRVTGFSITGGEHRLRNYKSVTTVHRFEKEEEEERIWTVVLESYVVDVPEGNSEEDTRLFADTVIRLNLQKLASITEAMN; partner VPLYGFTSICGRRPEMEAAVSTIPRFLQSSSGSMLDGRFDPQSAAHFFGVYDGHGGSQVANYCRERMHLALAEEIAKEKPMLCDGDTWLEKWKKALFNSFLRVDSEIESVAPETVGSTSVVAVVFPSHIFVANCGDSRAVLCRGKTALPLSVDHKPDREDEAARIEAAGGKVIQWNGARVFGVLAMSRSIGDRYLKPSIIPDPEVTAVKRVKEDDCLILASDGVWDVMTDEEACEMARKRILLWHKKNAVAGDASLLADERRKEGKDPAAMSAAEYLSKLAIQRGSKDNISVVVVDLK
Variant | relative binding score
H34I | 25.8%
G81Q | -12.7%
I33T | 0.659%
L94K | -5.54%
L8F | 46.6%
L20P | 65.7%
H16P | 1.32%
E127S | 66.6%
L28T | 26.9%
A35V | 9.84%
E128N | 72.1%
Y115K | -1.19%
Q10W | 33.7%
Q10L | 45%

Set 2
Target: CREB3L2, bZIP domain (human)
Technique: DHFR protein complementation
Matrix: yeast
Notes: single substitutions, most at no-binding floor
Relative to: wild-type JUN-FOS pair
Reading: higher = stronger binding
Parent: JUN, bZIP domain (human); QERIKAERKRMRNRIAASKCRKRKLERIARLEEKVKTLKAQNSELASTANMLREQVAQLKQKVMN; partner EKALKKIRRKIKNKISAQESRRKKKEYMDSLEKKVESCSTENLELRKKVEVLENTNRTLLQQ
Variant | binding fitness
A40Y | -1.45 natural log
N42Y | -1.48 natural log
T48E | -1.46 natural log
N42F | -1.39 natural log
E33G | -1.51 natural log
E32I | -1.49 natural log
L38H | -1.51 natural log
V35C | -1.48 natural log
R30V | -1.35 natural log
R30Q | -1.52 natural log
E32M | -1.49 natural log
L31K | -1.46 natural log
L45Q | -1.32 natural log
L31V | -1.55 natural log

Set 3
Target: CCNA2, cyclin fold, Cln2 fusion (human)
Technique: yeast growth competition, sequencing
Matrix: yeast
Notes: strong parent motif
Relative to: not given
Reading: higher = stronger binding
Parent: RBL1 docking peptide (human); GSAKRRLFGEDPP
Variant | normalised enrichment score
GSAKNRLFGEDPP [R5N] | 0.677
GSAKRRLFGADPP [E10A] | 5.34
GCAKRRLFGEDPP [S2C] | 6.33
GSAKRRAFGEDPP [L7A] | 0.107
VSAKRRLFGEDPP [G1V] | 6.94
GSAKQRLFGEDPP [R5Q] | 1.73
GRAKRRLFGEDPP [S2R] | 6.41
GSAKRKLFGEDPP [R6K] | 5.5
GSAKRRLFGEDPK [P13K] | 5.05
GSAKRLLFGEDPP [R6L] | 2.24
GSAKRRLWGEDPP [F8W] | 3.8
GSAIRRLFGEDPP [K4I] | 2.6
ISAKRRLFGEDPP [G1I] | 6.74
GSAKRRLFGIDPP [E10I] | 5.74
GSAKRRTFGEDPP [L7T] | -0.21
GSAKRRLFGEDHP [P12H] | 5.7
GSVKRRLFGEDPP [A3V] | 6.42
GSHKRRLFGEDPP [A3H] | 2.47
GSAVRRLFGEDPP [K4V] | 4.4
GSAKRRLFGEDPH [P13H] | 6.71
GSAKRRLFGEGPP [D11G] | 5.87

Set 4
Target: UBE2Q1 UBC core domain (UniProt Q7Z7E8)
Chain of UniProt Q7Z7E8 (whole entry, looked up): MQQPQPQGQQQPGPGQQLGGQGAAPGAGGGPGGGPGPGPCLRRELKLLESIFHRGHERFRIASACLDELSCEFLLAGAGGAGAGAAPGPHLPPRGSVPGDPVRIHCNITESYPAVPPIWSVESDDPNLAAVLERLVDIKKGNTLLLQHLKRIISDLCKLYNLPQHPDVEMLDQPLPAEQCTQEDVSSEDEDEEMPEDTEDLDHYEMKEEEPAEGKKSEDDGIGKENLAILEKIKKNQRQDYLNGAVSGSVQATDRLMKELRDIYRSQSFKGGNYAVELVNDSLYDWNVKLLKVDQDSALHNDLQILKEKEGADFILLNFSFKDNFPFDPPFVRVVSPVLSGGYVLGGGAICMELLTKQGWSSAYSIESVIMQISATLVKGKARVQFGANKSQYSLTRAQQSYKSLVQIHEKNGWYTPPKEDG
Technique: yeast two-hybrid
Matrix: yeast
Notes: mostly zero background
Relative to: not given
Reading: higher = stronger interaction
B1: RNF166 RING domain (UniProt Q96A37); chain GDSGLEAQYTCPICLEVYHRPVAIGSCGHTFCGECLQPCLQVPSPLCPLCRLPFDPKKVDK
B2: RNF187 RING domain (UniProt Q5TA31); chain ALPAGPAEAACALCQRAPREPVRADCGHRFCRACVVRFWAEEDGPFPCPECADDCWQRAVEP
B3: TRIM22 RING domain (UniProt Q8IYM9); chain VKVDIEKEVTCPICLELLTEPLSLDCGHSFCQACITAKIKESVIISRGESSCPVCQTRFQPGNLRP
B4: TRIM31 RING domain (UniProt Q9BZY9); chain FVNKLQEEVICPICLDILQKPVTIDCGHNFCLKCITQIGETSCGFFKCPLCKTSVRKNAIRF
B5: TRIM54 RING domain (UniProt Q9BYV2); chain SMDNLEKQLICPICLEMFSKPVVILPCQHNLCRKCANDVFQASNPLWQSRGSTTVSSGGRFRCPSCRHEVVLDRHGV
B6: RNF122 RING domain (UniProt Q9H9V4); chain AKKLQLYGQTCAVCLEDFKGKDELGVLPCQHAFHRKCLVKWLEVRCVCPMCNKPIASPSEAT
B7: MEX3B RING domain (UniProt Q6ZN04); chain SGLRRKGSRDCSVCFESEVIAALVPCGHNLFCMECANRICEKSEPECPVCHTAVTQAIRIF
B8: RLIM RING domain (UniProt Q9NVW2); chain SFGENDALKTCSVCITEYTEGNKLRKLPCSHEYHVHCIDRWLSENSTCPICRRAVLASGNRE
B9: RNF31 RING domain (UniProt Q96EP0); chain AFLRRLLAQECAVCGWALPHNRMQALTSCECTICPDCFRQHFTIALKEKHITDMVCPACGRPDLTDDTQLL
B10: ANAPC11 RING domain (UniProt Q9NYG5); chain GICRMAFNGCCPDCKVPGDDCPLVWGQCSHCFHMHCILKWLHAQQVQQHCPMCRQEWKFKE
Sequence | lacZ reporter activity
LDAASGHPLVCPLCHGQYERPCLLDCFHDFCTGCLRGRATDGRLSCPLCQHQTLVKGPSG (Rnf207 RING domain (UniProt Q3V3A7)) | 0
B1 (RNF166 RING domain) | 0
B2 (RNF187 RING domain) | 0
B3 (TRIM22 RING domain) | 0
YCEMGSTFQLCKICAENDKDVKIEPCGHLMCTSCLTAWQESDGQGCPFCRCEIKGTEPII (CBLB RING domain (UniProt Q13191)) | 0
B4 (TRIM31 RING domain) | 0
B5 (TRIM54 RING domain) | 0
B6 (RNF122 RING domain) | 0
AEADPLGRFTCPVCLEVYEKPVQVPCGHVFCSACLQECLKPKKPVCGVCRSALAPGVRAV (RNF114 RING domain (UniProt Q9Y508)) | 0
B7 (MEX3B RING domain) | 0
B8 (RLIM RING domain) | 0
MNDVLENELQCIICSEYFIEAVTLNCAHSFCSYCINEWMKRKIECPICRKDIKSKTYSL (RNF8 RING domain (UniProt O76064)) | 0
B9 (RNF31 RING domain) | 0
YPEEVDDDLICHICLQALLDPLDTPCGHTYCTLCLTNFLVEKDFCPMDRKPLVLQHCKK (LNX1 RING domain (UniProt Q8TBB1)) | 0
PEELAVNNDDCAICWDSMQAARKLPCGHLFHNSCLRSWLEQDTSCPTCRMSLNIADNNR (AMFR RING domain (UniProt Q9UKV5)) | 0
B10 (ANAPC11 RING domain) | 0

For quick reference, copied from above (set 1):
Variant | relative binding score
H34I | 25.8%
G81Q | -12.7%
I33T | 0.659%
L94K | -5.54%
L8F | 46.6%
L20P | 65.7%
H16P | 1.32%
E127S | 66.6%
L28T | 26.9%
